Measurements gathered from unrelated publications.
Parts stem from different laboratories: compare values within a part only.

Set 1
Target: Histone acetyltransferase KAT6A, winged helix 1, GST fusion (KAT6A, Homo sapiens, UniProt Q92794, residues 1-85)
Technique: protein binding microarray
Molecule type: double-stranded DNA, one strand shown
Sample: in vitro
Concentration: not given
Notes: 8-mer, flanks averaged, mean of 2 arrays, mostly near background
Baseline: not given
Direction: higher = stronger binding
Quantity: E-score
Residues (chain): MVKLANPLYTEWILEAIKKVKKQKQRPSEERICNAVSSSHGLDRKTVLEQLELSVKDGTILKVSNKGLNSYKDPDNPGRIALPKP
CTTACCGA: 0.0258
AGTAGACC: -0.0214
ATTGGTAA: 0.0153
GTTACGGA: 0.269
AATGCGGA: 0.135
CACCAGCG: 0.0372
CCGGTCAA: 0.245
CGGAGAAG: 0.0815
ATTTCCAC: -0.165
ATTGGACA: -0.191
AGGATCCT: -0.228
CGAGATTA: 0.122
GGAACTTA: 0.0331
GTGAGAGA: -0.165
TGCAATAA: -0.0818
ACCAGCAT: -0.248

Set 2
Target: Ras GTPase-activating protein-binding protein 1, RRM domain (G3BP1, Homo sapiens, UniProt Q13283)
Sequence of UniProt Q13283 (whole entry, looked up): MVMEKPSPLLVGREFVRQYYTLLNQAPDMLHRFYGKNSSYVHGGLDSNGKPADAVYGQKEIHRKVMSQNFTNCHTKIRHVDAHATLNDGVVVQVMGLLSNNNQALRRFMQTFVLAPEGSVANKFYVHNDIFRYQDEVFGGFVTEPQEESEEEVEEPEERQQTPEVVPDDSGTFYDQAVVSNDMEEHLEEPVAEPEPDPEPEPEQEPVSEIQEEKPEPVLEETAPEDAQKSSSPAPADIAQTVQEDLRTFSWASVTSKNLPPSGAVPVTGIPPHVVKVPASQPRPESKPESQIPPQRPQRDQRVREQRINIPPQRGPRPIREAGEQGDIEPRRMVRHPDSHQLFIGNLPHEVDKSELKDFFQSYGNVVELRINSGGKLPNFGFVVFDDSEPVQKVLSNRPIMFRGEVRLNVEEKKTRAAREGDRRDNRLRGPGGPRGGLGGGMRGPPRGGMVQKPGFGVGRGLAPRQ
Technique: RNA Bind-n-Seq
Molecule type: RNA
Sample: in vitro
Concentration: 1 µM
Notes: whole 134-nt RNA, ends assumed
Added: 150 mM KCl
Baseline: input library
Direction: higher = stronger binding
Quantity: log2 enrichment
Constant ends, left off below: GGGAGUUCUACAGUCCGACGAUC … UGGAAUUCUCGGGUGUCAAGG
ACCAUGCAGGUGGGCAAAAUUGGGAAGUGGGGCAAGGGGGGGAUAGGGAGGGGGGUAACACUUUGGGAACAGGUGGUCCCAGGUCGUUUC: -0.57
CUCAAGUCCUGUGCUACACAUCGUAUGUACCGAAUCGGUUGGUUGGGGUUGGGAAAGUAUUAUGUUACGCCGUUCGGAUCUGCACUUCCA: -0.218
AAGUCCUGUGCUACACAUCGUAUGUACCGAAUCAAAUUUAAAUUUUUAAAUUUAAAAAAGUAUUAUGUUACGCCGUUCGGAUCUGCACUU: -0.835
AGUCCUGUGCUACACAUCGUAUGUACCGAAUCGGGAAAAAGGGAAAGGGAAAAAGGGAAAGUAUUAUGUUACGCCGUUCGGAUCUGCACU: 0.315
UGGGAGGUGGAUUUUGUUUAUUUUUUUAGCUCAUUUCCAGGGGUGGGAAUUUUUUUUUAAUAUGUGUCAUGAAUUAAGUUGUUUUUGAAA: 1.21
UGCCUGGCCCAGUGCUGGGUUUGCCUUGUUGACGAUGCGCUUGGAUUGUUAAGGACACCGAUGUUCAGAACCCGGGAAGAGUCAUCUUAA: -0.334
ACCAUCCAGGUGGGCAUCUUUGGGAAGUGGGGCAAGGGGGGGAUAGGGAGGGGGGUAACACUUUGGGAACAGGUGGUCCCAGGUCGUUUC: -0.525
AAGUCCUGUGCUACACAUCGUAUGUACCGAAUCGGGUUUUGGGUUUUGGUUUUGGGGAAAGUAUUAUGUUACGCCGUUCGGAUCUGCACU: 0.012
UAACUUUAGAGGAGGAACUGAUGGAUAUGGCAGUGGACGUGGAUUUGGGGAUGGCUAUAAUGGGUAUGGAGGAGGACCUGGAGGUGGCAA: -0.751
UGGGAGGUGGAUUUUGUUUAUUUUUUUAGCUCAUUUCCAGGGGUGGGAAUUUUUUUUUAAUAUGUGUCAUGAAUAAAAUUGUUUUUGAAA: 1.18
UCAAGUCCUGUGCUACACAUCGUAUGUACCGAAUCGGAAAGGGAAAGGGGAAAGGAAAGUAUUAUGUUACGCCGUUCGGAUCUGCACUUC: -0.253
UGGGAGGUGGAUUUUGUUUAUUUUGUUAGCUCAUUUCCAGGGGUGGGAAUUUUUUUUUAAUAUGUGUCAUGAAUAAAGUUGUUUUUGAAA: 1.75
UGCCGUGCCGGGUGGACGGUCUGCUCGCCUGUCUGCGUGACGAAACUGAGGCACAAAGACGCGCUAUGCCAGCGGCGGGUAUAGCAAGGG: -0.468
UCCUGUGCUACACAUCGUAUGUACCGAAUCGGCCCCCCGGGGCCCCCCGGCCCCCCGGGAAAGUAUUAUGUUACGCCGUUCGGAUCUGCA: -0.334

Set 3
Target: RING finger protein unkempt homolog, zinc fingers 1-6, GST-SBP tag (UNK, Homo sapiens, UniProt Q9C0B0, residues 30-357)
Technique: RNA Bind-n-Seq
Molecule type: RNA
Sample: in vitro
Concentration: not given
Notes: RNA with constant flanks, human and mouse sites, ends assumed
Baseline: input RNA pool
Direction: higher = stronger binding
Quantity: bound/input enrichment
Constant ends, left off below: GGGAGUUCUACAGUCCGACGAUC … CAACAGAGGAUUGAGCAUCA
Target sequence (chain): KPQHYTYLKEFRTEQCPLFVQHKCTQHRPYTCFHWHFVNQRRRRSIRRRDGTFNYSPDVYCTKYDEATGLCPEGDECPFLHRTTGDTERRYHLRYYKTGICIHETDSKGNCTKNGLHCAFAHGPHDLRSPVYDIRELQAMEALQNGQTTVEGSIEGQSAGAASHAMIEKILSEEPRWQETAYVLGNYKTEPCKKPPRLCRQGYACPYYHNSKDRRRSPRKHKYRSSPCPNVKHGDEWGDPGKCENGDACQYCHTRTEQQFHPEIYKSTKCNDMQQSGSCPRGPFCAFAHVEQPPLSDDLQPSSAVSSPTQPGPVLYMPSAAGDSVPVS
UUUGGAGGUAUUUGAUAACUGAGUAGGUGAGGAGAUUAAAAGGGAGCCAUAUAGCACUGUCACCCCUUAUUUGAGGAACUGAUGUUUGAAAGGCUGUUCUUUUCUCUCUUAAUGUCAUUU: 0.323 ratio
CCAGGGCUCAAAGUGGGCCCUGUCCCAGUGCUGGUGAUGAGUCUUCUGUUCAUCGCUGCUGUAUUUAUGCUGCACAUUUGGGGCAAGUACACGCGAUCAUAGAUUGGGCUACAUCCAUCU: 0.141 ratio
ACCUCCAGAAAGAAGAAUAUUGGCCCCUUGAAUUCUGGAAGUUCAUUGAAGAGUCUGAAAUUAGGGACUUAUUUCAAAUUUGGACAUGGCUAGUCGAGGCGCAACAAGACCCAACGGGCC: 0.306 ratio
CUGCUAGUGCAUGGGGCUUUAGCCUUUCCUCUAGGGUUAGAUUCCUACCAUGGCUGUGUUAUAGCGGCUGCCCGCUAUGGCCGGGGCCGGGUGGUUGUGACUGGCCAUAAGGUAUUAUUC: 0.284 ratio
ACUGACCAAUGCACCAAAUGAAUGCUAAAAUGCACUUUAGGUUUGUUUUUGCACUUCUGAUAGUAUCUUUCAACCACGAUGUACUGGGCAAGAAUUUGAAAUACAGGAUUUAUGAGGAAC: 0.387 ratio
GACCUCGCCGAGGCUGGAGGCCGAGCUCUGCAGAGCUUACAAUUGAGACUGCUAACCCCUACCUUUGAAGGGAUCAACGGAUUGUUGUUGAAACAACAUUUAGUUCAGAAUCCAGUCAGA: 0.0683 ratio
GUGAAACUGGUUCUUCCAAAGACCAAGUUUUCUAUGGUGUUACCUGAAGUCGAAGCAGCGUUAGCCGAGAUUCCUGGCGUCCGGAGUGUCGUGUUGUUUGGAGUAGAAACGCACGUGUGU: 0.245 ratio
GGCCCAGCUGUGGCUGAUAGGGUGGCGCAGAAGCAUGGCUUCCACAACCUGGGCCAGAUCUUCGGUGACUAUUACCACUUCUGGCACAGAGCAGUGACAAAGCGGUCCCUGUCGCCUCAC: 0.132 ratio
GUGACCCUGAUGAUGGAUGCCACCAAUAUGCCAGCUGUCAAAGCCAUCAUAUAUCAGUAUAUGGAAGAGAUUUAUCAUAGAAUCCCCGACUCAGACCCAUCUUCUAGCAAAACAAGGCAG: 0.385 ratio
UCUGAUAGGAAUAUAGUACUGUAUGAUAUGCGGCAAGCUACUCCUUUGAAAAAGGUUAUCCUGGAAAUGAGGACAAAUACAAUCUGUUGGAACCCUAUGGAAGCUUUCAAUUUUACUGCA: 0.336 ratio
GAUACAGUAAUUAUGAAUCCUCCCUUUGGGACCAAAAAUAAUAAAGGGACAGAUAUGGCUUUUCUGAAGACUGCUUUGGGAAUGGCAAGAACAGCAGUAUAUUCUUUACACAAGUCCUCA: 0.296 ratio

Set 4
Target: RNA binding protein fox-1 homolog 2, RRM domain, GST-SBP tag (RBFOX2, Homo sapiens, UniProt O43251-10, residues 100-194)
Technique: RNA Bind-n-Seq
Molecule type: RNA
Sample: in vitro
Concentration: 365 nM
Notes: natural RNA segment, single round, ends assumed
Baseline: no-protein control
Direction: higher = stronger binding
Quantity: RBNS enrichment (R)
Constant ends, left off below: GGGAGUUCUACAGUCCGACGAUC … UGGAAUUCUCGGGUGCCAA
Target sequence (chain): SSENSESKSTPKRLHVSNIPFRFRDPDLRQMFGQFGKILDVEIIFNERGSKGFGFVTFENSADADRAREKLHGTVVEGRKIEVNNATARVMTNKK
AUGCUUAUAUACACAUUCCUUAGGUUGGAAGAAUAUCCACGGACAAUGCACUUAUUUUUAAACGAGCAUGACAUGAGGUGUGUUUAUAAAUUAUCAGGGAUUUUAUGUAU: 5.28
UGAUAGUUCUGAAGGCAUGAGCAAGGCUUCAGAAAUGAUCACCACGCUUGCAGUUGAAAGUGCCAGUGUCAAAGAAAGUGUUGAGAAGCUGCCUCUUCAGUGCAAAGAUG: 1.88
CAGGCUUGCCUGAGUGUGUGGGGUGCGCAGGCGCGUGCCUGUCUUUUUGUACUGUAACUACCUCAUGGUUUGAAUGAUGAGCGUACUGCUGGUUGUAUUAACAGAGCACA: 0.63
UGUGGGCUGAAGUUUAGGGGACUGCAGACACAUCUGGGCCCAGUCCUCAGCUGUUCCUUGCUGGUAUACCUCAGAAGUGGAAUGUCAGAGUGGGCUACUAGAGACCUCUG: 0.268
UUGUCUAGUUUAAUCCUACCUUUAAUAGUUGUGUUUGGUAAAAUUCCCACUUGAAUGUGACACUGAUAAUAAUUAUGCUGAUUUUUAGCAUCUCUUAUAGGAAUCAAAGU: 3.27
UUAAAUUUUCUCAAAGCAAGGUAACUGCUCAGCUCAGUCAGCUGUGGCAAGCUGGCCAGCCCUCUUCACUCCAGCGUUCUUCACUGCUCUAUGUCUGCUUACACAGCUUG: 0.63
GAGAGAGUGGCAGAUGCUCCAGUUUCACUUAAGCAGUGGUAAACGUUUGAAGGUUCGUUUUUUGUUGGAACUCCGGAUGUAGACUAGCCUAGCCUCAGAUCCUCCGUGAG: 0.794
GGGGCUGAACAUGCCUGCCAAAGACGUGUCCGACCUACGUUCCUGGCCCCCUCAUUCAGAGACUGCCCUUCUCACGGGCUCUAUGCCUGCACUGGGAAGGAAACAAAUGU: 0.193
AUUGCAACCAAAAUGGGGACUUCCUGGGUAGGGAGGUCACUCCCUCUACUCACUGAGCUAGGAUUAGGGAGGGUUAUUGCCCCAACCAUUGCAAUGGGAGGUGGAGGGAC: 0.961
GCGUAAAGCAGAACAGCCUCCCGAAUGAAGCGUUGCCAUUGAACUCACCAGUGAGUUAGCAGCACGUGUUCCCGACAUAACAUUGUACUGUAAUGGAGUGAGCGUAGCAG: 0.912
UGUCACCGAGGCACCUGUCUCAGCUAGGACUCAGUUUCUCUUUCUGAGGUCGGCGUUAUUUCCUCUCUCCCCCCACGUCAUCCUCCUCCGACACUGACGUCCACCGUGCA: 1.42
UGCCCUUGGUUUACUGAGGGGGGUCUUGGUUGCUGCUGAAGCCCCCCACCCCUUCUAAAGUGCAAUGCAAAAGGGACAUCAUGUAUAUGCAGCGUUUGUUUGGAAUUUUC: 0.676

Some of these lines once more (set 4):
GAGAGAGUGGCAGAUGCUCCAGUUUCACUUAAGCAGUGGUAAACGUUUGAAGGUUCGUUUUUUGUUGGAACUCCGGAUGUAGACUAGCCUAGCCUCAGAUCCUCCGUGAG: 0.794
UGUCACCGAGGCACCUGUCUCAGCUAGGACUCAGUUUCUCUUUCUGAGGUCGGCGUUAUUUCCUCUCUCCCCCCACGUCAUCCUCCUCCGACACUGACGUCCACCGUGCA: 1.42
GCGUAAAGCAGAACAGCCUCCCGAAUGAAGCGUUGCCAUUGAACUCACCAGUGAGUUAGCAGCACGUGUUCCCGACAUAACAUUGUACUGUAAUGGAGUGAGCGUAGCAG: 0.912
